Published values collected from several papers.
Each line is one published result; not all experiments were run side by side. ± gives the spread as reported.

SMILES	target or system	assay	test system	setting	endpoint	value
Cc1ccc(N2CC3CC(C2)N3)cc1C(=O)NC1(c2ccc3c4c(cccc24)C(=O)N3C)CC1	SARS-CoV-2	viral replication	Vero C1008, XBB.1	0.01715 µM	inhibition	25%
CCCCCCCCCCCCCCCC(=O)N[C@@H](CCC(=O)NCCCC[C@H](NC(=O)[C@H](CC(=O)O)NC(=O)[C@H](CO)NC(=O)[C@@H](NC(=O)[C@H](Cc1ccccc1)NC(=O)[C@@H](NC(=O)CNC(=O)[C@H](CCC(N)=O)NC(=O)[C@H](C)NC(=O)[C@@H](Cc1ccc(O)cc1)NC(C)=O)[C@@H](C)O)[C@@H](C)O)C(=O)N[C@@H](CO)C(=O)N[C@@H](CCCCN)C(=O)N[C@@H](Cc1ccc(O)cc1)C(=O)N[C@@H](CC(C)C)C(=O)N[C@@H](CC(=O)O)C(=O)N[C@@H](CCC(=O)O)C(=O)N[C@@H](CCCNC(=N)N)C(=O)N[C@@H](C)C(=O)N[C@@H](C)C(=O)N[C@@H](CCC(N)=O)C(=O)N[C@@H](CC(=O)O)C(=O)N[C@@H](Cc1ccccc1)C(=O)N[C@H](C(=O)N[C@@H](CCC(N)=O)C(=O)N[C@@H](Cc1c[nH]c2ccccc12)C(=O)N[C@@H](CC(C)C)C(=O)N[C@@H](CC(C)C)C(=O)N[C@@H](CCC(=O)O)C(=O)NCC(=O)NCC(=O)N1CCC[C@H]1C(=O)N[C@@H](CO)C(=O)N[C@@H](CO)C(=O)NCC(=O)N[C@@H](C)C(=O)N1CCC[C@H]1C(=O)N1CCC[C@H]1C(=O)N1CCC[C@H]1C(=O)N[C@@H](CO)C(N)=O)C(C)C)C(=O)O			male cynomolgus monkey, plasma	subcutaneous, 0.0161 mg/kg	Tmax	7 h
CC(C)(C)NC(=O)[C@@H](c1cccnc1)N(C(=O)c1ccco1)c1ccc(C(C)(C)C)cc1	SARS-CoV-2		Vero	10 µM	viral titre	572000 IU/mL
CC[C@H](C)[C@H](NC(=O)[C@H](CCCN)NC(=O)[C@H](CC(=O)O)NC(=O)[C@H](CC(C)C)NC(=O)C(C)(CC(C)C)NC(=O)[C@@H](NC(=O)[C@H](CO)NC(=O)[C@H](Cc1ccc(O)cc1)NC(=O)[C@H](CC(=O)O)NC(=O)[C@H](CO)NC(=O)[C@@H](NC(=O)[C@H](Cc1ccccc1)NC(=O)[C@@H](NC(=O)CNC(=O)[C@H](CCC(=O)O)NC(=O)C(C)(C)NC(=O)[C@@H](N)Cc1ccc(O)cc1)[C@@H](C)O)[C@@H](C)CC)[C@@H](C)CC)C(=O)N[C@@H](Cc1c[nH]cn1)C(=O)N[C@@H](CCC(N)=O)C(=O)NC(C)(C)C(=O)N[C@@H](CC(=O)O)C(=O)N[C@@H](Cc1ccccc1)C(=O)N[C@H](C(=O)N[C@@H](CCC(=O)O)C(=O)N[C@@H](Cc1ccc(O)cc1)C(=O)N[C@@H](CCCCNC(=O)COCCOCCNC(=O)COCCOCCNC(=O)CC[C@H](NC(=O)CCCCCCCCCCCCCCCCCCC(=O)O)C(=O)O)C(=O)N[C@@H](CC(C)C)C(=O)N[C@@H](CCC(=O)O)C(=O)NCC(=O)NCC(=O)N1CCC[C@H]1C(=O)N[C@@H](CO)C(=O)N[C@@H](CO)C(=O)NCC(=O)N[C@@H](C)C(=O)N1CCC[C@H]1C(=O)N1CCC[C@H]1C(=O)N1CCC[C@H]1C(=O)N[C@@H](CO)C(N)=O)C(C)C (stereo partly shown)			human, plasma	subcutaneous, 25 mg, single dose, healthy volunteers	Vd/F	8.11 L
CC[C@H](C)[C@H](NC(=O)[C@H](CCCCN)NC(=O)[C@H](CCCCN)NC(=O)[C@H](CC(C)C)NC(=O)[C@H](Cc1c[nH]c2ccccc12)NC(=O)CN)C(=O)NCC(=O)N[C@@H](CCCCN)C(=O)N[C@@H](CCCCN)C(=O)N[C@H](C(=O)N[C@@H](CCC(=O)O)C(=O)N[C@@H](CCCNC(=N)N)C(=O)N[C@H](C(=O)NCC(=O)N[C@@H](CCC(N)=O)C(=O)N[C@@H](Cc1c[nH]cn1)C(=O)N[C@H](C(=O)N[C@@H](CCCNC(=N)N)C(=O)N[C@@H](CC(=O)O)C(=O)N[C@@H](C)C(=O)N[C@H](C(=O)N[C@H](C(=O)N[C@@H](CCC(N)=O)C(=O)N[C@H](C(=O)N[C@H](C(=O)NCC(=O)N[C@H](C(=O)N[C@@H](C)C(=O)N[C@@H](CCC(N)=O)C(=O)N[C@@H](CCC(N)=O)C(=O)N[C@@H](C)C(=O)N[C@@H](C)C(=O)N[C@@H](CC(N)=O)C(=O)N[C@H](C(=O)N[C@@H](C)C(=O)N[C@@H](C)C(=O)N[C@H](C(=O)N[C@@H](CC(C)C)C(=O)N[C@@H](CCCCN)C(N)=O)[C@@H](C)O)C(C)C)C(C)C)[C@@H](C)CC)[C@@H](C)O)[C@@H](C)CC)[C@@H](C)O)[C@@H](C)O)C(C)C)[C@@H](C)CC	Enterococcus faecium		DSM 17050, CAMHB		MIC	> 1020 µg/mL
Cc1oc2nc1C(=O)N[C@](C)(C(=O)O)c1nc(c(C)o1)C(=O)N[C@](C)(C(=O)O)c1nc(c(C)o1)C(=O)N[C@]2(C)C(=O)O	SARS-CoV-2	virucidal activity	Vero E6, NRC-03-nhCoV	2.5 µM	inhibition	6%
CCCC/C=C/C(=O)N[C@@H](Cc1csc2ccccc12)C(=O)N[C@H]1COC(=O)[C@@H]2C[C@@H](C)CN2C(=O)[C@H](C)NC(=O)[C@@H]2CCCCN2C(=O)[C@@H]2CCCN2C1=O	SARS-CoV-2		SB2	10 µM	viral RNA release reduction	90%
CC(C)CC(C(=O)N1CC2(CC1C#N)C(=O)Nc1ccccc12)N(C)C(=O)c1cc2c(F)cc(F)c(F)c2[nH]1 (stereo not shown)	SARS-CoV-2	viral replication, infectious virus	Vero E6	0.01111 µM	inhibition	74.1%
Cc1ccc(N2CCN(C)CC2)cc1C(=O)NC1(c2ccc3c4c(cccc24)CC3)CC1	SARS-CoV-2	viral replication	Vero C1008, Omicron BA.5	0.01715 µM	inhibition	0%
Cc1oc2nc1C(=O)N[C@](C)(C(=O)NCCc1ccccc1)c1nc(c(C)o1)C(=O)N[C@](C)(C(=O)NCCc1ccccc1)c1nc(c(C)o1)C(=O)N[C@]2(C)C(=O)NCCc1ccccc1	SARS-CoV-2	virucidal activity	Vero E6, NRC-03-nhCoV	20 µM	inhibition	≤ 90%
Cc1ccc(N2CC(N3CCC(C)(O)CC3)C2)cc1C(=O)NC1(c2ccc3c4c(cccc24)C(=O)N3C)CC1	SARS-CoV-2	viral replication	Vero C1008, XBB.1	0.01715 µM	inhibition	15%
CCCCCCCCCCCCCCCC(=O)N[C@@H](CCC(=O)NCCOCCOCCC(=O)NCCOCCOCCC(=O)NCCCC[C@H](NC(=O)[C@H](CC(=O)O)NC(=O)[C@H](CC(C)C)NC(=O)[C@H](Cc1ccc(O)cc1)NC(=O)[C@H](CCCCN)NC(=O)[C@H](CO)NC(=O)[C@H](Cc1ccc(O)cc1)NC(=O)[C@H](CC(=O)O)NC(=O)[C@H](CO)NC(=O)[C@@H](NC(=O)[C@H](Cc1ccccc1)NC(=O)[C@@H](NC(=O)CNC(=O)[C@H](CCC(N)=O)NC(=O)[C@@H](CO)NC(=O)[C@@H](N)Cc1c[nH]cn1)[C@@H](C)O)[C@@H](C)O)C(=O)N[C@@H](CCCNC(=N)N)C(=O)N[C@@H](CCCNC(=N)N)C(=O)N[C@@H](C)C(=O)N[C@@H](CCC(N)=O)C(=O)N[C@@H](CC(=O)O)C(=O)N[C@@H](Cc1ccccc1)C(=O)N[C@H](C(=O)N[C@@H](CCC(N)=O)C(=O)N[C@@H](Cc1c[nH]c2ccccc12)C(=O)N[C@@H](CC(C)C)C(=O)N[C@@H](CC(C)C)C(=O)N[C@@H](CC(N)=O)C(=O)N[C@H](C(=O)NCC(=O)NCC(=O)N1CCC[C@H]1C(=O)N[C@@H](CO)C(=O)N[C@@H](CO)C(=O)NCC(=O)N[C@@H](C)C(=O)N1CCC[C@H]1C(=O)N1CCC[C@H]1C(=O)N1CCC[C@H]1C(=O)N[C@@H](CO)C(N)=O)[C@@H](C)O)C(C)C)C(=O)O		refers to: ALP	rhesus monkey, female	subcutaneous, 20 µg/kg once daily, 28 days	serum enzyme activity	329 ± 105 U/L
Cc1oc2nc1C(=O)N[C@](C)(C(=O)OC(C)C)c1nc(c(C)o1)C(=O)N[C@](C)(C(=O)OC(C)C)c1nc(c(C)o1)C(=O)N[C@]2(C)C(=O)OC(C)C	SARS-CoV-2	virucidal activity	Vero E6, NRC-03-nhCoV	5 µM	inhibition	12%

Some of these lines once more:
SMILES	target or system	assay	test system	setting	endpoint	value
CCCCCCCCCCCCCCCC(=O)N[C@@H](CCC(=O)NCCCC[C@H](NC(=O)[C@H](CC(=O)O)NC(=O)[C@H](CO)NC(=O)[C@@H](NC(=O)[C@H](Cc1ccccc1)NC(=O)[C@@H](NC(=O)CNC(=O)[C@H](CCC(N)=O)NC(=O)[C@H](C)NC(=O)[C@@H](Cc1ccc(O)cc1)NC(C)=O)[C@@H](C)O)[C@@H](C)O)C(=O)N[C@@H](CO)C(=O)N[C@@H](CCCCN)C(=O)N[C@@H](Cc1ccc(O)cc1)C(=O)N[C@@H](CC(C)C)C(=O)N[C@@H](CC(=O)O)C(=O)N[C@@H](CCC(=O)O)C(=O)N[C@@H](CCCNC(=N)N)C(=O)N[C@@H](C)C(=O)N[C@@H](C)C(=O)N[C@@H](CCC(N)=O)C(=O)N[C@@H](CC(=O)O)C(=O)N[C@@H](Cc1ccccc1)C(=O)N[C@H](C(=O)N[C@@H](CCC(N)=O)C(=O)N[C@@H](Cc1c[nH]c2ccccc12)C(=O)N[C@@H](CC(C)C)C(=O)N[C@@H](CC(C)C)C(=O)N[C@@H](CCC(=O)O)C(=O)NCC(=O)NCC(=O)N1CCC[C@H]1C(=O)N[C@@H](CO)C(=O)N[C@@H](CO)C(=O)NCC(=O)N[C@@H](C)C(=O)N1CCC[C@H]1C(=O)N1CCC[C@H]1C(=O)N1CCC[C@H]1C(=O)N[C@@H](CO)C(N)=O)C(C)C)C(=O)O			male cynomolgus monkey, plasma	subcutaneous, 0.0161 mg/kg	Tmax	7 h
